Measured values collected from several papers.
“And” joins repeats or separate records; there may be more than shown. Numbers after ± are the reported error.

For `Cl.[2H]C([2H])([2H])CC(=O)c1cnc(NC(=O)C2CC2)cc1Nc1cccc(-c2ncn(C([2H])([2H])[2H])n2)c1OC`, the half-life was 9.65 h (geometric mean; human; oral, 10 mg once daily, day 7, fasted, liquid, multiple dose).
`CC(C)C[C@H](NC(=O)[C@H](Cc1ccccc1)NC(=O)c1cnccn1)B(O)O` has an organ weight of 651 mg (mouse xenograft, liver; dose not given).
`O=C(COc1ccc(Cl)cc1)NC12CC(c3nnc([C@H]4C[C@@H](OC(F)(F)F)C4)o3)(C1)C2` — result for “adverse event incidence”: 40% (item: Fatigue; human; 100 mg once daily, 28 (unit not given)).
`C[C@@H](NC(=O)N1C(=O)[C@H](Cc2ccnc(N)c2)[C@H]1C(=O)O)C1CCCCC1` — result for “time to steady state”: 1.5 h (UPLC-MS/MS; healthy adult Chinese volunteers, plasma; continuous intravenous infusion, 2.25 mg/kg/h, day 1 of 5-day infusion, median).
`CCn1cc(C(=O)N2CCOCC2)c(=O)c2cc(NC3Cc4ccccc4C3)cnc21` gave a Cmax of 1120 ng/mL (human, fed; oral suspension, 600 mg/day twice daily, day 1, arithmetic mean).
`C[C@@H](Nc1cc(F)cc(F)c1)c1cc(C(=O)N(C)C)cc2c(=O)cc(N3CCOCC3)oc12`: “treatment-related serious adverse events” 0% (item: Clostridioides difficile colitis; patients with advanced solid tumours; oral, dose not given, dose finding phase I).
For `CC/C(=C(\c1ccccc1)c1ccc(OCCN(C)C)cc1)c1ccccc1`, the heart rate was 237 ± 0.4 beats/min (male Hartley guinea pigs, anaesthetized; intravenous, 3 mg/kg group, baseline before infusion).
For `CN(C(=O)n1cnc(-c2ccc[n+]([O-])c2)c1)[C@H]1CC[C@H](O)CC1`, the tissue concentration was 8.7 ± 0.3 ng/g (rat, cortex; oral, 10 mg/kg single dose, 24 h).
`CC(C)NCC(O)c1ccc(NS(C)(=O)=O)cc1` (racemic) has a heart rate of 172 ± 0.4 beats/min (male Hartley guinea pigs, anaesthetized; intravenous, 3 mg/kg over 10 min, after infusion).
For `O=C(O)C=Cc1ccc(O)c(OS(=O)(=O)O)c1`, CSF concentration read “not detected” (human CSF; concentration not given, mean).
Under “adverse event Dysgeusia”, `Cc1cc(C)c(CNC(=O)c2cc(Cl)c3c(c2C)O[C@@](C)([C@H]2CC[C@H](N(C)C)CC2)O3)c(=O)[nH]1` is recorded as 50% (relapsed/refractory NHL patients; oral, 200 mg once daily, onset after cycle 1 day 1).
`CN(C(=O)n1cnc(-c2cccnc2)c1)[C@H]1CC[C@H](O)CC1` has a tissue concentration of 34.3 ± 5.7 ng/g (rat, cortex; oral, 10 mg/kg daily for 5 days, 4 h).
With `CC#CC(=O)N[C@H]1CCCN(c2c(F)cc(C(N)=O)c3[nH]c(C)c(C)c23)C1` the adverse events was 83.3% (healthy volunteers; oral, 1 mg once daily, 14 days, MAD phase I).
`[18F]c1ccc(-c2ccc3c(c2)[nH]c2ccncc23)cn1` has an uptake of 0.299 ± 0.344 SUV (ex vivo biodistribution; normal B6SJL mice, adipose; intravenous, 30 min).
For `C[C@@H](O)CCOC(=O)C[C@@H](C)O`, “systolic blood pressure” read 109 mmHg (human; oral drink, dose not given, 60 min post dose, mean).
`CC(C)(C(=O)N1CCOc2c(C#N)cncc2C1)C(F)F`: “subjects with TEAE” 16.7% (item: vessel puncture site pain; healthy humans, both sexes; oral, 40 mg single dose).
For `O=C(O)c1ccc(OS(=O)(=O)O)c(O)c1`, CSF concentration read “not detected” (human CSF; concentration not given, mean).
Under “diastolic blood pressure”, `CCN1/C(=C/C(C)=O)Sc2ccc(F)cc21` is recorded as 75 ± 2 mmHg (cynomolgus monkey; oral, 10 mg/kg, 0.5 h post-dose).
`COc1cc(C(=O)NC2CCN(C)CC2)c(F)cc1Nc1ncc(C(F)(F)F)c(Oc2cccc3c2C(=O)N(C)C3)n1`: “AUC(0-tau) cycle 1” 14.5 µM·h (human, Taiwanese, plasma; oral, 200 mg single dose, geometric mean).
With `CCCCC1=NC2(CCCC2)C(=O)N1Cc1ccc(-c2ccccc2S(=O)(=O)Nc2noc(C)c2C)c(COCC)c1` the Tmax was 4.26 h (healthy adult volunteers, plasma; oral, 100 mg, single dose, fed, crushed tablet).
For `CC(=O)Oc1ccccc1C(=O)O`, the heart rate was 243 ± 0.2 beats/min (male Hartley guinea pigs, anaesthetized; intravenous, 1 mg/kg over 10 min, after infusion).
For `C=CCN1CC(=O)N2[C@@H](Cc3ccc(O)cc3F)C(=O)N(Cc3cccc(N4CC(N5CCN(CC)CC5)C4)n3)C[C@@H]2N1C(=O)NCc1ccccc1`, “treatment-related ALT increased” read 0% (advanced solid tumour patients; oral, 10 mg twice daily, grade ≥3, dose-escalation).
`Nc1ncnc2c1c(-c1ccc(Oc3ccccc3)cc1)nn2[C@@H]1CCCN(C(=O)C(O)CO)C1` (some centres unmarked) gave a sensitivity of 85.7% (item: maximal concentration; B-LPD patients; hypertension risk threshold, ROC).
Under “AST increased incidence”, `CNC(=O)c1ccc(-c2cnc3ncc(Cc4ccc5ncccc5c4)n3n2)cc1F` is recorded as 16% (cancer patients; oral, 600 mg twice daily, all grades RP2D expansion).
Under “Urticaria dose reduction/interruption”, `CNC(=O)c1ccc(-c2cnc3ncc(Cc4ccc5ncccc5c4)n3n2)cc1F` is recorded as 2% (Japanese patients; oral, 400 mg, any grade).
`CCOc1c([C@H](C)n2nc(C)c3c(N)ncnc32)cc(Cl)c(F)c1[C@@H]1CNC(=O)C1` — result for “share of ECG observations”: 99.2% (item: ΔQTcF ≤ 30 ms; previously treated B-cell malignancy; oral, 30 mg once daily, overall population).
`COc1ccc2c(=O)n(C)c(-c3ccccc3)nc2c1` gave a concentration of 4630 ng/mL (Sprague-Dawley rat, male, small intestine; oral, 30 mg/kg, 2 h).
For `CC(=O)N(C)[C@H]1CCN(C(=O)c2cnc3c(c2)C[C@](C)(c2ccc(F)cc2)N3)C1`, “adverse event duration” read 1 days (item: Rhinitis; human; oral, 30 mg once daily).
For `CC(C)(C)c1ccc(O)c(CN(Cc2cc(C(C)(C)C)ccc2O)C2CCC(NC(N)=O)CC2)c1` (centres unmarked), “terminal elimination rate constant” read 8.06e-05 s⁻¹ (C57BL/6 mice, male, plasma; intraperitoneal, 25 mg/kg, single dose).
The dissolved amount of `Cc1cc(/C=C/C#N)cc(C)c1Nc1ccnc(Nc2ccc(C#N)cc2)n1` is reported as ~36% (USP II dissolution; HCl with polysorbate; 60 min, pH 2.0, 37 °C, 12.5 mg capsule, 100 rpm).
Under “incidence of Nausea”, `NC1(C(=O)N[C@@H](CCO)c2ccc(Cl)cc2)CCN(c2nc[nH]c3nccc2-3)CC1` is recorded as 0% (metastatic CRPC patients; 480 mg b.i.d., grade 3 to 4, treatment-related, with: enzalutamide 160 mg daily).
With `O=C(CCCCCCC(=O)Nc1ccc(CC[18F])cc1)NO` the tissue uptake was 3.5 ± 0.5 %ID/g (athymic nu/nu male mice, LNCaP xenograft, lungs; intravenous, 0.5 h).
`CCN1C(=O)N(c2c(F)c(OC)cc(OC)c2F)Cc2cnc3[nH]c(CN4CCOCC4)cc3c21` gave an Emax of 43.4% (exposure-response model vs AUCss, item: serum creatinine change from baseline; human; once daily monotherapy).
The plasma concentration of `CCN1CCN(Cc2ccc(NC(=O)c3ccc(C)c(NC(=O)c4cncc(-c5cccs5)c4)c3)cc2C(F)(F)F)CC1` is reported as 172 ng/mL and 113 ng/mL and 146 ng/mL (LC-MS/MS; C57BL/6 mouse, plasma; intraperitoneal, 15 mg/kg single dose, 4 h).
For `CC[C@H](C)[C@H](NC(=O)[C@H](Cc1ccccc1)NC(=O)[C@H](CCC(=O)O)NC(=O)[C@H](CCCCNC(=O)COCCOCCNC(=O)COCCOCCNC(=O)CC[C@H](NC(=O)CCCCCCCCCCCCCCCCC(=O)O)C(=O)O)NC(=O)[C@H](C)NC(=O)[C@H](C)NC(=O)[C@H](CCC(N)=O)NC(=O)CNC(=O)[C@H](CCC(=O)O)NC(=O)[C@H](CC(C)C)NC(=O)[C@H](Cc1ccc(O)cc1)NC(=O)[C@H](CO)NC(=O)[C@H](CO)NC(=O)[C@@H](NC(=O)[C@H](CC(=O)O)NC(=O)[C@H](CO)NC(=O)[C@@H](NC(=O)[C@H](Cc1ccccc1)NC(=O)[C@@H](NC(=O)CNC(=O)[C@H](CCC(=O)O)NC(=O)C(C)(C)NC(=O)[C@@H](N)Cc1cnc[nH]1)[C@@H](C)O)[C@@H](C)O)C(C)C)C(=O)N[C@@H](C)C(=O)N[C@@H](Cc1c[nH]c2ccccc12)C(=O)N[C@@H](CC(C)C)C(=O)N[C@H](C(=O)N[C@@H](CCCNC(=N)N)C(=O)NCC(=O)N[C@@H](CCCNC(=N)N)C(=O)NCC(=O)O)C(C)C`, “heart rate change” read 1.2 beats/min (hypoglycaemic clamp; type 2 diabetes patients; dose not given, plasma glucose 5.5 to 3.5 mmol/L).
